Results collected from several papers.
Compare with care: the assays were run in different laboratories. Several values in a cell are separate wells, animals, samples, runs or records. ± gives the spread as reported.
FAP: Prolyl endopeptidase FAP (FAP, Homo sapiens, UniProt Q12884)
UniProt Q12884, sequence (whole entry, looked up): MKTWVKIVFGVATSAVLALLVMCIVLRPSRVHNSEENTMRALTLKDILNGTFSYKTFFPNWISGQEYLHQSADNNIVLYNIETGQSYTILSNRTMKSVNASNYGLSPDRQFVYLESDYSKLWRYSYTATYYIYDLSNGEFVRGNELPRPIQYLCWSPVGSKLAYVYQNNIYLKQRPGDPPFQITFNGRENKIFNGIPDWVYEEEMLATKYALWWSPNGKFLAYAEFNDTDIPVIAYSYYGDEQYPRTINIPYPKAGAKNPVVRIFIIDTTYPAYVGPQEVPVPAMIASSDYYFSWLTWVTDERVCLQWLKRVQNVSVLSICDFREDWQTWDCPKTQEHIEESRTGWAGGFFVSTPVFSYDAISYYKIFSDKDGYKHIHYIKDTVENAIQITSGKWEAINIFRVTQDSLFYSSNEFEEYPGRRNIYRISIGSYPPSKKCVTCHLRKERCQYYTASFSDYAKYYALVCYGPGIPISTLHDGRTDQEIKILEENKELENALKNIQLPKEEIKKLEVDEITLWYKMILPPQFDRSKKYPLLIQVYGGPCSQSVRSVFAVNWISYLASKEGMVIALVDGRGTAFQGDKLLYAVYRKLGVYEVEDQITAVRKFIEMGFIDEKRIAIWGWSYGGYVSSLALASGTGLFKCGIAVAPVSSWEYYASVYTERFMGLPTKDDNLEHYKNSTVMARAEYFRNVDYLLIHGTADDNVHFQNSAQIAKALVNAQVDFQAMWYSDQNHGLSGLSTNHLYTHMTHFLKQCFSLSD
B1: UGT1A9 (Homo sapiens, UniProt O60656); chain GKLLVVPMDGSHWFTMRSVVEKLILRGHEVVVVMPEVSWQLGRSLNCTVKTYSTSYTLEDLDREFKAFAHAQWKAQVRSIYSLLMGSYNDIFDLFFSNCRSLFKDKKLVEYLKESSFDAVFLDPFDNCGLIVAKYFSLPSVVFARGILCHYLEEGAQCPAPLSYVPRILLGFSDAMTFKERVRNHIMHLEEHLLCHRFFKNALEIASEILQTPVTEYDLYSHTSIWLLRTDFVLDYPKPVMPNMIFIGGINCHQGKPLPMEFEAYINASGEHGIVVFSLGSMVSEIPEKKAMAIADALGKIPQTVLWRYTGTRPSNLANNTILVKWLPQNDLLGHPMTRAFITHAGSHGVYESICNGVPMVMMPLFGDQMDNAKRMETKGAGVTLNVLEMTSEDLENALKAVINDKSYKENIMRLSSLHKDRPVEPLDLAVFWVEFVMRHKGAPHLRPAAHDLTWYQYHSLDVIGFLLAVVLTVAFITFKCCAYGYRKCLGKKGRVKKAHKSKTH
UniProt Q6XEC0, sequence (whole entry, looked up): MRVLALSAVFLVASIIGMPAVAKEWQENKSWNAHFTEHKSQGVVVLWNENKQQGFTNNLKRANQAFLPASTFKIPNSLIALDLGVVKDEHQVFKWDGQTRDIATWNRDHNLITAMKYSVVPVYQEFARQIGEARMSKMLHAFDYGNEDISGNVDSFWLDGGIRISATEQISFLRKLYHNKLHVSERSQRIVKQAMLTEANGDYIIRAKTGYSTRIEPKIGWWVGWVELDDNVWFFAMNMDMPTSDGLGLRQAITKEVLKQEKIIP

For `melittin`, “free energy of partitioning” read -6 kcal/mol (CD titration; POPC 100% POPG 0% vesicles; pH 7.0, 60 °C).
For N=C(N)NCCC[C@@H]1NC(=O)[C@H](CCCCNC(=O)CNC(=O)CNC(=O)CNC(=O)CC[C@H](NC(=O)CCOCCOCCOCCOCCNC(=O)c2ccc(NN)nc2)C(=O)NCC(=O)NCC(=O)NCC(=O)NCCCC[C@@H]2NC(=O)[C@@H](Cc3ccccc3)NC(=O)[C@H](CC(=O)O)NC(=O)CNC(=O)[C@H](CCCNC(=N)N)NC2=O)NC(=O)[C@@H](Cc2ccccc2)NC(=O)[C@H](CC(=O)O)NC(=O)CNC1=O [technetium-99m labelled], the tissue uptake was 10.7 ± 1 %ID/g (γ-counting; female athymic nude mice, U-87 MG xenograft, kidneys; intravenous, 1 h).
`B1 (UGT1A9)` gave a Km of 0.64 µM and 0.61 µM and 0.67 µM (O=c1c(O)c(-c2cc(O)c(O)c(O)c2)oc2cc(O)cc(O)c12; steady-state kinetics; pH 7.4, 37 °C).
For CN[C@@](C)(C[18F])C(=O)O, the tracer uptake was 2.3 %ID/g (DU-145 tumour model; host not given, lung; 30 min, tumour-bearing).
`OXA-48 (Klebsiella pneumoniae, UniProt Q6XEC0)` gave a kcat/Km of 900000 M⁻¹ s⁻¹ (C[C@@H](O)[C@H]1C(=O)N2C(C(=O)O)=C(SCCN=CN)C[C@H]12; steady-state kinetics; pH 7.2, 30 °C).
CC[C@H]1CN2CCc3cc(OC)c(OC)cc3[C@@H]2C[C@@H]1C[C@@H]1c2cc(OC)c(OC)cc2CCN1C(=O)[C@H](C)NC(=O)[C@@H]1CCCN1C(=O)CNC(=O)[C@H](C)NC(=O)[C@@H]1CCCN1C(=O)CNC(=O)[C@H](CO)NC(=O)[C@H](C)NC(C)=O: “hydrolysis to emetine” 0% (FAP; substrate, HPLC-MS; 250 µM, 24 h, pH 7.8, 37 °C, 2.5% DMSO).
CC(=O)N(O)CCCCCNC(=O)CCC(=O)N(O)CCCCCNC(=O)CCC(=O)N(O)CCCCCNC(=S)Nc1ccc(NC(=S)NCCOCCOCCOCCOCCC(=O)N[C@@H](CCC(=O)NCCOCCOCCOCCOCCC(=O)NCCCC[C@@H]2NC(=O)[C@@H](Cc3ccccc3)NC(=O)[C@H](CC(=O)O)NC(=O)CNC(=O)[C@H](CCCNC(=N)N)NC2=O)C(=O)NCCOCCOCCOCCOCCC(=O)NCCCC[C@@H]2NC(=O)[C@@H](Cc3ccccc3)NC(=O)[C@H](CC(=O)O)NC(=O)CNC(=O)[C@H](CCCNC(=N)N)NC2=O)cc1 [zirconium-89 labelled] has a tissue uptake of 9.5 ± 1.3 %ID/g (athymic nude mice female tumour-bearing, spleen; intravenous, dose not given, 4 h, together with: unlabelled c(RGDfK) 300 µg).
CC[C@H]1CN2CCc3cc(OC)c(OC)cc3[C@@H]2C[C@@H]1C[C@@H]1c2cc(OC)c(OC)cc2CCN1C(=O)OCc1ccc(NC(=O)[C@@H]2CCCN2C(=O)CNC(=O)[C@H](C)NC(=O)[C@@H]2CCCN2C(=O)CNC(=O)[C@H](CO)NC(=O)[C@H](C)NC(C)=O)cc1: “hydrolysis to emetine” 0% (FAP; substrate, HPLC-MS; 250 µM, 24 h, pH 7.8, 37 °C, 2.5% DMSO).
With COc1cccc2c1C(=O)c1c(O)c3c(c(O)c1C2=O)C[C@@](O)(C(=O)CO)C[C@@H]3O[C@H]1C[C@H](NC(=O)[C@@H]2CCCN2C(=O)CNC(=O)[C@H](CC(C)C)NC(=O)[C@H](C)NC(=O)CP(=O)(O)O)[C@H](O)[C@H](C)O1 the Tmax was 5 min (mouse, E0771 tumour-bearing, plasma; intravenous, 92 µmol/kg).
Cc1ccccc1NC(=O)Nc1ccc(CC(=O)N[C@@H](CCCCNC(=O)/C=C/c2cccnc2)C(=O)N[C@@H](CCCC(=O)O)C(=O)NC2(C(=O)NCCOCCOCCOCCOCC(=O)N[C@@H](CCCCNC(=S)Nc3ccc(C[C@H]4CN(CC(=O)O)CCN(CC(=O)O)CCN4CC(=O)O)cc3)C(N)=O)CCCCC2)cc1 [fluorine-18 labelled] has a defluorination of less than 5% (radio-HPLC; human serum; 4 h, 37 °C).
For COc1cccc2c1C(=O)c1c(O)c3c(c(O)c1C2=O)C[C@@](O)(C(=O)CO)C[C@@H]3O[C@H]1C[C@H](NC(=O)[C@H](CC(C)C)NC(=O)[C@H](C)NC(=O)[C@H](CC(C)C)NC(=O)CCNC(=O)CCC(=O)O)[C@H](O)[C@H](C)O1, the Tmax was 5 min (mouse, E0771 tumour-bearing, plasma; intravenous, 92 µmol/kg).
N=C(N)NCCC[C@@H]1NC(=O)[C@H](CCCCNC(=O)[C@H](CC(=O)O)NC(=O)[C@H](CC(=O)O)NC(=O)[C@H](CC(=O)O)NC(=O)CC[C@H](NC(=O)CCOCCOCCOCCOCCNC(=O)c2ccc(NN)nc2)C(=O)N[C@@H](CC(=O)O)C(=O)N[C@@H](CC(=O)O)C(=O)N[C@@H](CC(=O)O)C(=O)NCCCC[C@@H]2NC(=O)[C@@H](Cc3ccccc3)NC(=O)[C@H](CC(=O)O)NC(=O)CNC(=O)[C@H](CCCNC(=N)N)NC2=O)NC(=O)[C@@H](Cc2ccccc2)NC(=O)[C@H](CC(=O)O)NC(=O)CNC1=O [technetium-99m labelled] has a tissue uptake of 0.19 ± 0.09 %ID/g (γ-counting; female athymic nude mice, U-87 MG xenograft, blood; intravenous, 2 h).

For quick reference, copied from above:
CC[C@H]1CN2CCc3cc(OC)c(OC)cc3[C@@H]2C[C@@H]1C[C@@H]1c2cc(OC)c(OC)cc2CCN1C(=O)[C@H](C)NC(=O)[C@@H]1CCCN1C(=O)CNC(=O)[C@H](C)NC(=O)[C@@H]1CCCN1C(=O)CNC(=O)[C@H](CO)NC(=O)[C@H](C)NC(C)=O: “hydrolysis to emetine” 0% (FAP; substrate, HPLC-MS; 250 µM, 24 h, pH 7.8, 37 °C, 2.5% DMSO).
